Published values collected from several papers.
Compare with care: the assays were run in different laboratories. ± gives the spread as reported.

O=C([O-])CNC(=O)CN1CCN(CC(=O)NCC(=O)[O-])CCN(CC(=O)NCC(=O)[O-])CCN(CC(=O)NCC(=O)[O-])CC1.[177Lu+3] has a tissue uptake of 0.233 ± 0.183 % injected dose/g (Sprague-Dawley rat, spleen; intravenous (tail vein), dose not given, 2 h).
C[C@H](O)[C@@H](NC(=O)[C@H]1CCCN1C(=O)[C@@H](CCCCN)NC(=O)[C@@H](CO)NC(=O)[C@@H](Cc1ccc(O)cc1)NC(=O)[C@@H](CC(N)=O)NC(=O)CCOCCOCCOCCNC(=O)CN1CCN(CC(=O)O)CCN(CC(=O)O)CCN(CC(=O)O)CC1)C(=O)N[C@H](CC(=O)O)C(=O)N[C@H](CCCNC(=N)N)C(=O)N[C@H](CCC(N)=O)C(=O)N[C@H](Cc1ccc(O)cc1)C(=O)N[C@H](Cc1c[nH]cn1)C(=O)N[C@H](Cc1ccccc1)C(N)=O [gallium-68 labelled] has a tissue uptake of 0.08 ± 0.02 %ID/g (ex vivo gamma counting; BALB/c nude mouse, U-87 MG xenograft, intestine; intravenous, 1.85 MBq, 60 min).
With Cc1ccccc1-c1ccc(-c2nc(-c3ccc(CN(C)CCCC(=O)O)c([18F])c3)no2)cc1C(F)(F)F the tissue uptake was 0.26 ± 0.1 %ID/g (Sprague Dawley rats, male, pancreas; 60 min).
CC[C@H](C)[C@H](NC(=O)[C@H](CCCCN)NC(=O)CNC(=O)[C@H](CC(C)C)NC(=O)[C@H](Cc1ccccc1)NC(=O)[C@H](CCCCN)NC(=O)[C@H](CO)NC(=O)[C@H](Cc1ccccc1)NC(=O)[C@H](Cc1c[nH]c2ccccc12)NC(=O)[C@H](CCC(N)=O)NC(=O)[C@@H](NC(=O)[C@H](Cc1ccccc1)NC(=O)CCCCCNC(=O)CN1CCN(CC(=O)O)CCN(CC(=O)O)CCN(CC(=O)O)CC1)C(C)C)C(=O)N[C@@H](CCC(=O)O)C(=O)N1CCC[C@H]1C(=O)N[C@@H](CC(=O)O)C(=O)N[C@H](C(=O)N[C@@H](CO)C(=O)N[C@@H](CCC(N)=O)C(=O)N[C@H](C(=O)N[C@@H](CCC(N)=O)C(=O)N[C@@H](CC(=O)O)C(=O)N1CCC[C@H]1C(=O)N[C@@H](CC(N)=O)C(=O)N[C@@H](CC(=O)O)C(=O)N[C@@H](CCC(N)=O)C(=O)N[C@@H](Cc1ccc(O)cc1)C(=O)N[C@@H](CCC(=O)O)C(=O)N1CCC[C@H]1C(=O)N[C@@H](Cc1ccccc1)C(=O)O)C(C)C)C(C)C [copper-64 labelled] gave a tissue uptake of 0.12 ± 0.02 %ID/g (BALB/c mice, male, CT26 tumour-bearing, brain; 2 h, vehicle-treated).
With CSCC[C@H](NC(=O)CNC(=O)[C@H](CCCCN)NC(=O)[C@H](CC(C)C)NC(=O)[C@@H]1CCCN1C(=O)[C@H](CO)NC(=O)[C@H](Cc1c[nH]cn1)NC(=O)[C@H](Cc1c[nH]c2ccccc12)NC(=O)[C@H](CCCNC(=N)N)NC(=O)[C@H](CC(C)C)NC(=O)[C@H](CCCNC(=N)N)NC(=O)[C@H](Cc1c[nH]c2ccccc12)NC(=O)[C@H](CS)NC(=O)CCCCCNC(=O)CN1CCN(CC(=O)O)CCN(CC(=O)O)CCN(CC(=O)O)CC1)C(=O)O [copper-64 labelled] the tissue uptake was 13 %ID/g (male C57BL/6J mice, B16-F10 tumour, small intestine; intravenous, 1.85 MBq, 0.5 h).
CCCC[C@H]1C(=O)N(C)[C@@H](CCCC)C(=O)N[C@@H](CCCNC(=O)CN2CCN(CC(=O)O)CCN(CC(=O)O)CCN(CC(=O)O)CC2)C(=O)N[C@H](C(=O)NCC(N)=O)CSCC(=O)N[C@@H](Cc2ccc(O)cc2)C(=O)N(C)[C@@H](C)C(=O)N[C@@H](CC(N)=O)C(=O)N2CCC[C@H]2C(=O)N[C@@H](Cc2c[nH]cn2)C(=O)N[C@@H](CC(C)C)C(=O)N(C)CC(=O)N[C@@H](Cc2c[nH]c3ccccc23)C(=O)N[C@@H](CO)C(=O)N[C@@H](Cc2c[nH]c3ccccc23)C(=O)N1C [gallium-68 labelled] has a tissue uptake of 2.95 ± 0.37 %ID/g (NOD/SCID mice, CHO-hPD-L1 xenograft, heart; 60 min, PBS pretreatment).
CC[C@H](C)[C@H](NC(=O)[C@H](CCCNC(=N)N)NC(=O)[C@H](CCCCN)NC(=O)[C@H](Cc1ccc(O)cc1)NC(=O)[C@H](CC(=O)O)NC(=O)[C@H](C)NC(=O)CNC(=O)CCOCCOCCOCCNC(=O)CN1CCN(CC(=O)O)CCN(CC(=O)O)CCN(CC(=O)O)CC1)C(=O)N[C@H](C(=O)N[C@H](C(=O)N[C@@H](CCCCN)C(=O)N[C@H](C(=O)N[C@@H](CC(N)=O)C(N)=O)C(C)C)C(C)C)[C@@H](C)O [copper-64 labelled] gave a tissue uptake of 0.505 ± 0.076 %ID/g (ex vivo gamma counting; C57BL/6J male mice, B16-F10 tumour, testis; intravenous, 1.85 MBq, 100 min).
With CC(C)C[C@@H](NC(=O)[C@@H](CCCNC(=N)N)NC(=O)[C@@H](Cc1c[nH]cn1)NC(=O)[C@@H](Cc1c[nH]c2ccccc12)NC(=O)[C@@H](Cc1c[nH]cn1)NC(=O)[C@@H](Cc1ccccc1)NC(=O)[C@H](NC(=O)[C@@H](Cc1ccc(O)cc1)NC(=O)CNC(=O)CNC(=O)CCOCCOCCOCCNC(=O)CN1CCN(CC(=O)O)CCN(CC(=O)O)CC1)[C@H](C)O)C(=O)N[C@H](CC(N)=O)C(=O)N1CCC[C@@H]1C(=O)O [gallium-68 labelled] the tissue uptake was 1.08 ± 0.21 %ID/g (C57BL/6 mice, male, lung; intravenous, 1.85 MBq, 60 min, together with: blocking antibody).
CN1Cc2cc(Cl)ccc2-n2c(nnc2C2CCN(c3cccc([18F])n3)CC2)C1 gave a tissue uptake of 6.34 ± 2.9 %ID/g (C57BL/6 mouse male, small intestine; intravenous, dose not given, 5 min, together with: blocking agent 10 mg/kg).
For CC[C@H](C)[C@H](NC(=O)[C@H](CCCNC(=N)N)NC(=O)[C@H](CCCCN)NC(=O)[C@H](Cc1ccc(O)cc1)NC(=O)[C@H](CC(=O)O)NC(=O)[C@H](C)NC(=O)CNC(=O)CCOCCOCCOCCNC(=O)CN1CCN(CC(=O)O)CCN(CC(=O)O)CCN(CC(=O)O)CC1)C(=O)N[C@H](C(=O)N[C@@H](CC(C)C)C(=O)N[C@@H](CCCCN)C(=O)N[C@H](C(=O)N[C@@H](CC(N)=O)C(N)=O)C(C)C)[C@@H](C)O [copper-64 labelled], the tissue uptake was 1.93 ± 0.354 %ID/g (ex vivo gamma counting; C57BL/6J male mice, B16-F10 tumour, spleen; intravenous, 1.85 MBq, 40 min).

Repeated from above:
With CC(C)C[C@@H](NC(=O)[C@@H](CCCNC(=N)N)NC(=O)[C@@H](Cc1c[nH]cn1)NC(=O)[C@@H](Cc1c[nH]c2ccccc12)NC(=O)[C@@H](Cc1c[nH]cn1)NC(=O)[C@@H](Cc1ccccc1)NC(=O)[C@H](NC(=O)[C@@H](Cc1ccc(O)cc1)NC(=O)CNC(=O)CNC(=O)CCOCCOCCOCCNC(=O)CN1CCN(CC(=O)O)CCN(CC(=O)O)CC1)[C@H](C)O)C(=O)N[C@H](CC(N)=O)C(=O)N1CCC[C@@H]1C(=O)O [gallium-68 labelled] the tissue uptake was 1.08 ± 0.21 %ID/g (C57BL/6 mice, male, lung; intravenous, 1.85 MBq, 60 min, together with: blocking antibody).
